Assay results collected from several papers.
Values joined by “and” are separate records of one study, mostly repeats; a detail may differ. ± marks the error that the study gave.
NADH dehydrogenase [ubiquinone] iron-sulfur protein 7, mitochondrial/NADH dehydrogenase [ubiquinone] iron-sulfur protein 2, mitochondrial/MT-ND1: NADH dehydrogenase [ubiquinone] iron-sulfur protein 7, mitochondrial/NADH dehydrogenase [ubiquinone] iron-sulfur protein 2, mitochondrial/MT-ND1 (Homo sapiens, UniProt O75251+O75306+P03886)
TRPM8: Transient receptor potential cation channel subfamily M member 8 (TRPM8, Homo sapiens, UniProt Q7Z2W7)
Kir3.1/Kir3.2: Kir3.1/Kir3.2 (Homo sapiens, UniProt P48051+P48549)
FFAR4: Free fatty acid receptor 4 (FFAR4, Homo sapiens, UniProt Q5NUL3)
GAP50: Glideosome-associated protein 50 (GAP50, Plasmodium falciparum, UniProt Q8I2X3)
PDE1C isoform PDE1C2: Dual specificity calcium/calmodulin-dependent 3',5'-cyclic nucleotide phosphodiesterase 1C, isoform PDE1C2 (PDE1C, Homo sapiens, UniProt Q14123)
Maoa: Amine oxidase [flavin-containing] A (Maoa, Rattus norvegicus, UniProt P21396)
Nuclear receptor subfamily 4 group A member 2 LBD: Nuclear receptor subfamily 4 group A member 2, LBD (Homo sapiens, UniProt P43354)
GUK1: GUK1 (Homo sapiens, UniProt Q16774)

Compound	target	test	system	conditions	how to read	quantity	value
NC(=O)NO	NADH dehydrogenase [ubiquinone] iron-sulfur protein 7, mitochondrial/NADH dehydrogenase [ubiquinone] iron-sulfur protein 2, mitochondrial/MT-ND1	complex I-dependent respiration, Seahorse XF96	HCT-116	500 µM, 24 h	reference: control	oxygen consumption rate	82.1 ± 9.12%
C=CC(=O)N1CCC(COCC(=O)N2CCN(c3nc(-c4cnc(N)nc4C(F)F)nc(N4CCOC[C@@H]4C)n3)CC2)CC1	PKN2 (Homo sapiens, UniProt Q16513)	KINOMEscan		1 µM		remaining binding	94%
Nc1ncnc2c1ncn2[C@@H]1O[C@H](COP(=O)(O)OP(=O)(O)OP(=O)(O)O)[C@@H](O)[C@H]1O	P2X purinoceptor 7 (P2rx7, Rattus norvegicus, UniProt Q64663)	ion current, two-electrode voltage clamp	Xenopus laevis oocytes	3000 µM		normalized current	1 and 0.97
COc1ccc(C(=O)Nc2sc3c(c2C(N)=O)CCCC3)cc1OC	TRPM8	antagonist	HEK293	5 µM	reference: control	remaining activity	103 ± 12.8%
O=C(COc1cc(Cl)ccc1Cl)Nc1cc(C2CC2)nn1C1CCC(F)(F)CC1	Kir3.1/Kir3.2	thallium flux, activator	HEK293		reference: standard compound	Emax	51%
CN1CCN(c2cc(-c3ccncc3)c(-c3ccc4ccccc4c3)nn2)CC1	SSTR2 (Homo sapiens, UniProt P30874)	agonist, FLIPR		12.5 µM		activation	-0.6%
CCCCCNc1cc(=O)[nH]c(=O)[nH]1	FFAR4	agonist, β-arrestin recruitment	CHO cells	10 µM		activation	1%
Cc1ccc2oc(-c3cc(NC(=O)Cc4ccccc4)ccc3Cl)nc2c1	GAP50	binding, surface plasmon resonance		1:1 binding model		kon	102000 M⁻¹ s⁻¹
NC(=O)c1sc(-c2ccccc2)cc1NC(=O)c1cccs1	3-oxoacyl-[acyl-carrier-protein] reductase FabG (fabG, Pseudomonas aeruginosa, UniProt O54438)	enzyme activity, inhibitor, NADPH fluorescence		reverse reaction, with: 3-OH-decanoyl-NAC, NADP		Hill slope	0.7
[H]/N=C(/N)NCC(=O)O	SLC6A6 (Homo sapiens, UniProt P31641, L306A)	binding, microscale thermophoresis		488 nM, room temperature, with: 50 nM labelled protein	higher = more binding	normalised MST signal	-0.0183
CC(C)[C@H](NC(=O)c1cc(-c2cnn3cc(-c4ccc(OCCN5CCCCC5)cc4)cnc23)cs1)C(F)(F)F	WNK2 (Homo sapiens, UniProt Q9Y3S1)	radiometric kinase		15 nM	reference: WNK2 over ULK1	relative inhibition	0.0227
CCOc1ccc(-c2nc(CNCCc3ccc(F)cc3)cs2)cc1	GAP50	binding, surface plasmon resonance		1:1 binding model		koff	0.28 s⁻¹
O=C(COc1ccc(C2CCC(=O)NC2=O)cc1)NCCCCCCN1CCc2c(c3ccccc3n2Cc2ccc(C(=O)NO)cc2)C1 (centres unmarked)	HDAC10 (Homo sapiens, UniProt Q969S8)	degrader, western blot	MM1.S	5 µM, 24 h		degradation	41%
CCOC(=O)c1c(C)[nH]c(/C=C2\C(=O)Nc3ccccc32)c1C	TRPM8	antagonist	HEK293	5 µM	reference: control	remaining activity	91.2 ± 10.8%
C#CCN(CCCN1CCN(C2CCCCC2)CC1)c1ccc(C(=O)c2ccccc2)cc1	TMEM97 (Homo sapiens, UniProt Q5BJF2)	radioligand binding	RT-4 cell membranes		reference: sigma1 Ki over sigma2 Ki	Ki ratio	8.39
CCNc1cc(=O)[nH]c(=O)[nH]1	FFAR4	β-arrestin recruitment	CHO	10 µM	reference: 30 µM TUG-891	agonist effect	1%
CC(C)(c1cc(Br)c(OCC2CO2)c(Br)c1)c1cc(Br)c(OCC2CO2)c(Br)c1 (centres unmarked)	ATP2A1 (Oryctolagus cuniculus, UniProt P04191)	ATPase activity	rabbit microsomes	concentration not given, pH 7.3, with: ATP 5 mM		SERCA1 inhibition	inactive
O=c1cc(N2CCOCC2)oc2c(-c3ccccc3)cccc12	TRPM8	antagonist	HEK293	5 µM	reference: control	remaining activity	89.1 ± 9.62%
Nc1ncnc2c1ncn2[C@@H]1O[C@H](COP(=O)(O)CP(=O)(O)OP(=O)(O)O)[C@@H](O)[C@H]1O	P2X purinoceptor 1 (P2RX1, Homo sapiens, UniProt P51575, K136A)	calcium influx		316 nM	reference: ionomycin response	calcium influx	94% and 90.5% and 89.1%
O=c1nc(SCc2cc(F)cc(C(F)(F)F)c2)nc(SCc2ccc3sccc3c2)[nH]1	TOP2A (Homo sapiens, UniProt P11388)	ATPase activity		3.9 µM, with: ATP 0.75 mM		ATP hydrolysis rate	2.1 µM/min and 2.16 µM/min
Cc1cc2c(c(=O)[nH]1)C(=O)O/C2=C\c1cc(Br)ccc1OC(C)C	PDE1C isoform PDE1C2	enzyme activity, inhibitor		with: 3H-cGMP substrate		ligand efficiency	0.39
Nc1nc2ccccc2[nH]1	HVCN1 (Homo sapiens, UniProt Q96D96)	proton current, inhibitor, inside-out patch clamp	Xenopus oocytes	dimeric channel		Hill coefficient	1.05 ± 0.09
NC(Cc1cc(I)c(Oc2cc(I)c(O)c(I)c2)c(I)c1)C(=O)O (centres unmarked)	Thyroxine 5-deiodinase (DIO3, Homo sapiens, UniProt P55073, Y257A)	substrate		concentration not given, 10 min	reference: average DMSO control	deiodinase activity	92.4%
COc1cccc(-n2nc3c4cc(Cl)ccc4[nH]cc-3c2=O)c1	Gamma-aminobutyric acid receptor subunit alpha-4/beta-3, with delta subunit (Rattus norvegicus, UniProt P28471+P63079)	modulator, two-electrode voltage clamp	α4β3δ receptor	100 nM, with: GABA EC3-10	reference: GABA alone	GABA current	102 ± 1.7%
NC(=O)NOCCCCCCCCCCCCCCCC[P+](c1ccccc1)(c1ccccc1)c1ccccc1.O=C([O-])C(F)(F)F	NADH dehydrogenase [ubiquinone] iron-sulfur protein 7, mitochondrial/NADH dehydrogenase [ubiquinone] iron-sulfur protein 2, mitochondrial/MT-ND1	complex I-dependent respiration, Seahorse XF96	HCT-116	0.03 µM, 24 h	reference: control	oxygen consumption rate	94.4 ± 2.33%
O=c1cc(-c2ccc(O)c(O)c2)oc2cc(O[C@@H]3O[C@H](CO)[C@@H](O)[C@H](O)[C@H]3O)cc(O)c12	Heat shock protein HSP 90-alpha, N-terminal domain (HSP90AA1, Homo sapiens, UniProt P07900)	SPR, two-state model	N-terminal domain			koff	0.117 ± 0.104 s⁻¹
CCCCCCN(C)c1cc(=O)[nH]c(=O)[nH]1	FFAR4	agonist, β-arrestin recruitment	CHO cells	10 µM	reference: 30 µM TUG-891	agonist effect	1%

Compound	target	test	system	conditions	how to read	quantity	value
C[N+]1(C)CCC[C@H]1C(=O)[O-]	uncharacterized protein (Pelagibacter ubique, UniProt Q4FKZ8)	differential scanning fluorimetry	Candidatus Pelagibacter ubique	in-house screen		thermal shift	11.5 °C
c1ccc(C[C@@H]2CN(c3nccc(Oc4ccc(-n5ccnc5)cc4)n3)CCN2)cc1	GAP50	binding, surface plasmon resonance		1:1 binding model		koff	0.835 s⁻¹
NCc1ccccc1	Maoa	kcat pH profile ES complex, substrate		pH 6.5-9.5		pKa	8.2 ± 0.1
O=C(ON1C(=O)CCC1=O)c1cc(C(F)(F)F)cc(C(F)(F)F)c1	CD209 antigen (CD209, Homo sapiens, UniProt Q9NNX6)	covalent labelling, intact protein MS		20 µM		kobs	0.0937 min⁻¹
O=C(CCCCCCC(=O)Nc1ccccc1)NO	HDAC8 (Homo sapiens, UniProt Q9BY41)	ITC	Tris-HCl buffer	288 K		TΔS°	0.01 kcal/mol
COCCOCc1ccc(-c2cc3onc(-c4ccccc4)c3c(=O)n2C)cc1	Nuclear receptor subfamily 4 group A member 2 LBD	reporter gene, Gal4 hybrid reporter		3 µM	reference: vehicle	activation	1.48 fold
COc1cc(F)ccc1-c1ncnc(Nc2cccc(C[S@](C)(=N)=O)c2)n1	ROCK1 (Homo sapiens, UniProt Q13464)	kinase activity		10 µM, with: 10 µM ATP		remaining activity	93%
CN1CCC(NCc2cccc(-c3ccc(S(=O)(=O)NCc4ccccc4)cc3)c2)CC1	GAP50	binding, surface plasmon resonance		1:1 binding model		koff	0.564 s⁻¹
NC(=O)NOCCCCCCCCCCCCCC[P+](c1ccccc1)(c1ccccc1)c1ccccc1.O=C([O-])C(F)(F)F	NADH dehydrogenase [ubiquinone] iron-sulfur protein 7, mitochondrial/NADH dehydrogenase [ubiquinone] iron-sulfur protein 2, mitochondrial/MT-ND1	complex I-dependent respiration, Seahorse XF96	HCT-116	2 µM, 24 h	reference: control	oxygen consumption rate	27.6 ± 4.49%
Nc1ncnc2c1ncn2[C@@H]1O[C@H](CSCC[C@H](N)C(=O)O)[C@@H](O)[C@H]1O	O-methyltransferase (Sorghum bicolor, UniProt A0A1B6PFV1)	isothermal titration calorimetry		concentration not given, apo protein		ΔG of binding	-6.27 kcal/mol
O=Nc1c(NCCCc2ccccc2)[nH]c(=O)[nH]c1=O	FFAR4	agonist, β-arrestin recruitment	CHO cells	10 µM	reference: 30 µM TUG-891	agonist effect	1 ± 1%
COc1ccc(CN)cc1	Maoa	substrate		pH 7.5, 25 °C, α,α-protio substrate		kcat	0.153 s⁻¹
CCCCCCCCN(C)c1cc(=O)[nH]c(=O)[nH]1	FFAR4	agonist, β-arrestin recruitment	CHO cells	10 µM		activation	1%
CC[C@@H]1[C@H](F)C(=O)N[C@@H]1COc1nccc2cc(C(N)=O)c(OC)cc12	CAMKK2 (Homo sapiens, UniProt Q96RR4)	ATP-site probe binding, ActivX profiling	THP-1 cell lysate	0.01 mM, Lys2 site		inhibition	5.1%
C=C1C(=O)O[C@@H]2C[C@@]3(C)CCCC(=C)[C@@H]3C[C@H]12	Nuclear receptor subfamily 4 group A member 2 LBD	reporter gene, Gal4 hybrid reporter		10 µM	reference: vehicle	activation	0.82 fold
COc1cc(Nc2ncc3c(n2)-c2ccc(Cl)cc2C(c2c(F)cccc2OC)=NC3)ccc1C(=O)O	MAPK1	kinase activity		1 µM		remaining activity	105%
CCOc1ccccc1/C=C1\OC(=O)c2c1cc(C)[nH]c2=O	PDE1C isoform PDE1C2	enzyme activity, inhibitor		with: 3H-cGMP substrate		ligand efficiency	0.42
[O-][S+]1CCCCS1 (centres unmarked)	SOD1 (Homo sapiens, UniProt P00441, G94A)	target engagement	SOD1 G93A transgenic mice, blood	intravenous, 10 mg/kg once daily		SOD1 dimer level	68% and 63%
CCCCCCCCNc1[nH]c(=O)[nH]c(=O)c1N=O	FFAR4	agonist, β-arrestin recruitment	CHO cells	10 µM		activation	0 ± 1%
COc1ccccc1C(=O)NCc1ccc(CNS(=O)(=O)c2ccc(C)cc2)cc1	CXCR4 (Homo sapiens, UniProt P61073)	binding, inhibitor, competitive binding	MDA-MB-231	with: biotinylated TN14003		EC	100 nM
Cn1sc(=O)n(Cc2ccccc2)c1=O	TRPM8	antagonist	HEK293	5 µM	reference: control	remaining activity	94.7 ± 6.31%
[Cl-].[K+]	GUK1	enzyme activity, NADH-coupled		120 mM		reaction velocity	-0.0149 µM/s and -0.0223 µM/s and -0.019 µM/s
O=c1[nH]c(NCCCc2ccccc2)c(Br)c(=O)[nH]1	FFAR4	agonist, β-arrestin recruitment	CHO cells	10 µM	reference: 30 µM TUG-891	agonist effect	0%
Nc1nc2c(ncn2[C@@H]2O[C@H](COP(=O)(O)O)[C@@H](O)[C@H]2O)c(=O)[nH]1	GUK1	substrate, NADH-coupled		NaCl 50 mM, with: ATP 2.5 mM		Km	49.5 µM
CCc1cc(NC(=O)COc2ccc(Cl)cc2Cl)n(C2CCC(F)(F)CC2)n1	Kir3.1/Kir3.2	thallium flux, activator	HEK293		reference: standard compound	Emax	83%
CN(C)c1ccc2nc3ccc(=[N+](C)C)cc-3sc2c1	MAPT (Homo sapiens, UniProt P10636)	ThT fluorescence		0.1-fold over protein, 30 h, with: tau 10 µM, heparin	reference: untreated	fibrillization plateau fluorescence	51 ± 5%
